Measurements pooled from the literature.
Protocols differ between the studies behind these lines.
Target: Interleukin-1 receptor-associated kinase 4 (IRAK4, Homo sapiens, UniProt Q9NWZ3)
Sequence of UniProt Q9NWZ3 (whole entry, looked up): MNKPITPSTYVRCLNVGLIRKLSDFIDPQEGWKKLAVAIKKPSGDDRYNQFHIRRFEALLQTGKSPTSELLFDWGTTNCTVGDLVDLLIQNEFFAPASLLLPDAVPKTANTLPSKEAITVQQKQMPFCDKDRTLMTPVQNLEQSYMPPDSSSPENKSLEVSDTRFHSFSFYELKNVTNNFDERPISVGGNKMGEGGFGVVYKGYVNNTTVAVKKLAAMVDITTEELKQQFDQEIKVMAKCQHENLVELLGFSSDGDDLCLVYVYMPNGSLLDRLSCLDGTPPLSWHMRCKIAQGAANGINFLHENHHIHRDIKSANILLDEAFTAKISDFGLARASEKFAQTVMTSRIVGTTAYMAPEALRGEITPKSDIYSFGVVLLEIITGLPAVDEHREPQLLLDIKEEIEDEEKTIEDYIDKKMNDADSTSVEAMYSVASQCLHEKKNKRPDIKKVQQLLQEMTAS

For C=CC(=O)N1CCC(C(=O)NCC(=O)N2CCN(c3nc(-c4cnc(N)nc4C(F)F)nc(N4CCOCC4)n3)CC2)CC1, the remaining binding was 95% (KINOMEscan; 1 µM).
C1=C/COCc2cc(ccc2OCCN2CCCC2)Nc2nccc(n2)-c2cccc(c2)COC/1: “percent of control” 56% (concentration not given).
The remaining binding of C=CC(=O)N1CCC(COCC(=O)N2CCN(c3nc(-c4cnc(N)nc4C(F)F)nc(N4CCOC[C@@H]4C)n3)CC2)CC1 is reported as 84% (KINOMEscan; 1 µM; reference: DMSO control).
With COc1cc(F)ccc1-c1ncnc(Nc2cccc(C[S@](C)(=N)=O)c2)n1 the remaining activity was 53% (kinase activity; 10 µM, together with: 10 µM ATP).
With Cc1cc(Nc2cc(N3CCN(C)CC3)nc(Sc3ccc(NC(=O)C4CC4)cc3)n2)[nH]n1 the remaining activity was 101% (kinase activity, KinaseProfiler; 0.03 µM, species human; reference: control).
O=C(NC1CCC1)c1ccc2nc(-c3cccc(NS(=O)(=O)NCCN4CCCCC4)c3)cn2c1 gave a remaining activity of 76% (enzyme activity; 10 µM).
The remaining binding of C[C@@H](c1ccc(-n2cnc3c(N)ncnc32)cc1)N1CCc2nn(C)c(Cc3ccccc3)c2C1=O is reported as 73% (KINOMEscan; 0.1 µM; reference: DMSO control).
O=C1NC(=O)/C(=C/c2ccc(-c3ccc(F)cc3O)o2)S1 has a remaining activity of 114% (enzyme activity; 10 µM).
CCN(CC)c1ccc(C2=NNC(=O)CC2C)cc1[N+](=O)[O-] (stereo not shown) gave a remaining activity of 95% (enzyme activity, inhibitor; 10 µM; reference: vehicle).
CCCOc1ccc(OC)c(F)c1C(=O)c1ccc(C(=O)N[C@@H]2CNC[C@H]2NC(=O)c2ccc3[nH]ncc3c2)cc1 has a remaining activity of 88% (enzyme activity; 10 µM).
